Measurements from different studies.
Each numbered part is a random draw from the data of one study; scales do not carry over between parts.
Chain of UniProt P36894 (whole entry, looked up): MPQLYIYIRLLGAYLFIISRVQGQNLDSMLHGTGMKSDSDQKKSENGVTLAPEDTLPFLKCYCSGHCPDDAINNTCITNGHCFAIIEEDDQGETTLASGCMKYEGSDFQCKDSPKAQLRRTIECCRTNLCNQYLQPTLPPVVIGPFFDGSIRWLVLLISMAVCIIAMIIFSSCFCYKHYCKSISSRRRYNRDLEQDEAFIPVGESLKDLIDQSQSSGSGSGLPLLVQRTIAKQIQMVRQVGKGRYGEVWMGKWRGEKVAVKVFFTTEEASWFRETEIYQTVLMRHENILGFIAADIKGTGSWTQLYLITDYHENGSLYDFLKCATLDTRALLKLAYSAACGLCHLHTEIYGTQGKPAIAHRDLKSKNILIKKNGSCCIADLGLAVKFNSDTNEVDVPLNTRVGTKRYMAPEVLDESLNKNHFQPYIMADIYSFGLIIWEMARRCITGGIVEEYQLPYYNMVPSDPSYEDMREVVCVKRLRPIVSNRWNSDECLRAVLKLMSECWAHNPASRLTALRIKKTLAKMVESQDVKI
Chain of UniProt Q06418 (whole entry, looked up): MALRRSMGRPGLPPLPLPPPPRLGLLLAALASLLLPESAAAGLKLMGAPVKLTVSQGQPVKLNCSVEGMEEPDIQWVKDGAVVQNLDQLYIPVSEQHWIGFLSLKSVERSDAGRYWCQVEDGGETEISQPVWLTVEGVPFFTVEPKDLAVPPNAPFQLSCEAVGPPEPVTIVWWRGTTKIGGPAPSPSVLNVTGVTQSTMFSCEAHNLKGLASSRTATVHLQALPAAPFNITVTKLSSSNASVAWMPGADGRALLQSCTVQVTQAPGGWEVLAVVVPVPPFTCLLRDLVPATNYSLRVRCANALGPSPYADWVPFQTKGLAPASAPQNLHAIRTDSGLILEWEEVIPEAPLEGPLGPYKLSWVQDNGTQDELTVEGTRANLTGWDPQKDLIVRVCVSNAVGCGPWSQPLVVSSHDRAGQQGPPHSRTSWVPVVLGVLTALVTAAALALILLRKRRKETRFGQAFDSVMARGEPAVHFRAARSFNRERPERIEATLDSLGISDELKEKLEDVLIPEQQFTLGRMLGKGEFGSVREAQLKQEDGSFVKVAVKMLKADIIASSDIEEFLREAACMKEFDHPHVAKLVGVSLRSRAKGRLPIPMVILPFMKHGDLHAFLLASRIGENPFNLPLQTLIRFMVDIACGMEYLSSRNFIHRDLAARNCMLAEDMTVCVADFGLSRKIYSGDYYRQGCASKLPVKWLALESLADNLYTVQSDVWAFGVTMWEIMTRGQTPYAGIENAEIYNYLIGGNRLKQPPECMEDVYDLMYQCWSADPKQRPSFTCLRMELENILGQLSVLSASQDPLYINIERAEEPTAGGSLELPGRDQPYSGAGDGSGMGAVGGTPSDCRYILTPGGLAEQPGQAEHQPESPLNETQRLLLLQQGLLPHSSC
Chain of UniProt P11802 (whole entry, looked up): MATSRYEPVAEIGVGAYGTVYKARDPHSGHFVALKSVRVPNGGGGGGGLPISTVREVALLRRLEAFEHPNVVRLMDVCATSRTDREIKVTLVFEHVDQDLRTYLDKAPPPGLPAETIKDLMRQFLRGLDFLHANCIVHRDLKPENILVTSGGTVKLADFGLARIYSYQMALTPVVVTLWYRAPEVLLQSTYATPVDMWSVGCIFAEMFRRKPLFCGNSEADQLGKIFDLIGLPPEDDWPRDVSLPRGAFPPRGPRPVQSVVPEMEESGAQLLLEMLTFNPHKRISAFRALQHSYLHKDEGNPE
Chain of UniProt P31152 (whole entry, looked up): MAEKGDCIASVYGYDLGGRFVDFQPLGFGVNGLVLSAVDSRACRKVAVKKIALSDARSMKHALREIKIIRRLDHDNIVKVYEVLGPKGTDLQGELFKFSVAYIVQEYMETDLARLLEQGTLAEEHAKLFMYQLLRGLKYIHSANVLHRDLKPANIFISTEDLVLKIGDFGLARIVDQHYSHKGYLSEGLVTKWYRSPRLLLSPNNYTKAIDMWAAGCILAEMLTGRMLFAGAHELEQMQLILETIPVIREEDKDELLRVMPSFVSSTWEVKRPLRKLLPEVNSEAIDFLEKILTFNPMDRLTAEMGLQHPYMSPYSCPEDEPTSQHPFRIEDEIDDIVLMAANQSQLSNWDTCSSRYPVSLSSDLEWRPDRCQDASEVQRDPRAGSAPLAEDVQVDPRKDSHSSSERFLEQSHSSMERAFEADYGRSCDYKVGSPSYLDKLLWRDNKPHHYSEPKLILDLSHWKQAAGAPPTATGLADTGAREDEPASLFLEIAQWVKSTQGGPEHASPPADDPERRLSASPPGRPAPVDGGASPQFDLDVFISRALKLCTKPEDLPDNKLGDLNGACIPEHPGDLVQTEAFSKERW
Chain of UniProt P45983 (whole entry, looked up): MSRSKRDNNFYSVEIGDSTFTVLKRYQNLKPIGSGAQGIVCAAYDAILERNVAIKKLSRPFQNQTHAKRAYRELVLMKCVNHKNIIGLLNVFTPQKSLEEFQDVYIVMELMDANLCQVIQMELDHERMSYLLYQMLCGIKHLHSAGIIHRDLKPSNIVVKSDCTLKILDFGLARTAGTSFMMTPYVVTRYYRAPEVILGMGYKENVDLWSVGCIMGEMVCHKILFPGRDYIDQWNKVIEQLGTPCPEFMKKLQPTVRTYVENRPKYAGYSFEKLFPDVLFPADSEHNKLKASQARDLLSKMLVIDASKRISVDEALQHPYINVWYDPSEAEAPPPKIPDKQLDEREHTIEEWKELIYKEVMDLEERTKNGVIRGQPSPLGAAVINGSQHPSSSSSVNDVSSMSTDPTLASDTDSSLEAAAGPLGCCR
Chain of UniProt O14976 (whole entry, looked up): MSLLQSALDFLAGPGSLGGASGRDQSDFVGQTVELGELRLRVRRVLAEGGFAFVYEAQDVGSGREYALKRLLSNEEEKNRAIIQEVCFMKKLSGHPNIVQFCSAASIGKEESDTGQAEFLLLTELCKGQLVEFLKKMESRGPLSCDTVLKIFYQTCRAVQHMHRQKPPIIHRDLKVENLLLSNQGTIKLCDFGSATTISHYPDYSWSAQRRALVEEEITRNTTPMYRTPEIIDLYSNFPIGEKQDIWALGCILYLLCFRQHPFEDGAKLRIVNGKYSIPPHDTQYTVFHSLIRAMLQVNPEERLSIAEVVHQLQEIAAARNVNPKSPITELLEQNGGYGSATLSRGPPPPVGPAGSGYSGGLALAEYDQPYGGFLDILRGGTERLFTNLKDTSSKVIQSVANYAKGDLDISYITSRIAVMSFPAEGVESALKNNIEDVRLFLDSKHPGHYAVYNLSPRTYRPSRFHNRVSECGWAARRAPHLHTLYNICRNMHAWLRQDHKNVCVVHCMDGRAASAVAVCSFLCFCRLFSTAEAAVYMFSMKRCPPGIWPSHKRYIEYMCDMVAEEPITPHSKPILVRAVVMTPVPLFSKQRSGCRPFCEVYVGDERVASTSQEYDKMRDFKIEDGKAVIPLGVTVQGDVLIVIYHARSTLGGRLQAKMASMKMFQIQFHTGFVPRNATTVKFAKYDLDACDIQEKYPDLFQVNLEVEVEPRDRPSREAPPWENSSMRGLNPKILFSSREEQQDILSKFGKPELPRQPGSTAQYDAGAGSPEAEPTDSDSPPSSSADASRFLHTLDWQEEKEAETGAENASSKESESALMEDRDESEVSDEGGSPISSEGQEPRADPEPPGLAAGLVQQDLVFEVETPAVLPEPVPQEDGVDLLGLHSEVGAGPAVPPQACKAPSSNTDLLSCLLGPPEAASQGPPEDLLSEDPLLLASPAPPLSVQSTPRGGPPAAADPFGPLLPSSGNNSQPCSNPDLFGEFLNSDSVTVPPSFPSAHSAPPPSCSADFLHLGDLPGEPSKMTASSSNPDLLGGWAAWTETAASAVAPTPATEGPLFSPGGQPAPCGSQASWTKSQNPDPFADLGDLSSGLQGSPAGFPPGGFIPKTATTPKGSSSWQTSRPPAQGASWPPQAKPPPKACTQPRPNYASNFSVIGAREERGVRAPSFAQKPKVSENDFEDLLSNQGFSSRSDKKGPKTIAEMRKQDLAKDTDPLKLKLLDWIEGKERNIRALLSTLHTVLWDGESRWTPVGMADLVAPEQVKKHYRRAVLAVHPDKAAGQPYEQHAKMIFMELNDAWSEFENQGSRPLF

Set 1
SMILES: CN(C)C(=O)Cn1cc(-c2nc(C3(c4ccc(-c5cnc(N)nc5)cc4)CC3)no2)cn1
Technique: competition with immobilised ligand
Tested at: 1 µM
Measurement: remaining binding
target = BMPR1A (Homo sapiens, UniProt P36894); observed = binding; result = 87%
target = EGFR (Homo sapiens, UniProt P00533, G719C); observed = cell-free assay; result = 100%
target = PRPF4B (Homo sapiens, UniProt Q13523); observed = cell-free assay; result = 87%
target = MAP4K3 (Homo sapiens, UniProt Q8IVH8); observed = cell-free assay; result = 89%
target = PTK2B (Homo sapiens, UniProt Q14289); observed = cell-free assay; result = 90%
target = PI4KB (Homo sapiens, UniProt Q9UBF8); observed = cell-free assay; result = 70%
target = PRKACB (Homo sapiens, UniProt P22694); observed = cell-free assay; result = 86%
target = ANKK1 (Homo sapiens, UniProt Q8NFD2); observed = cell-free assay; result = 81%
target = MATK (Homo sapiens, UniProt P42679); observed = cell-free assay; result = 77%
target = PLK3 (Homo sapiens, UniProt Q9H4B4); observed = cell-free assay; result = 89%
target = PIP5K1A (Homo sapiens, UniProt Q99755); observed = cell-free assay; result = 95%
target = CDK4 (Homo sapiens, UniProt P11802); observed = cell-free assay; result = 67%
target = MAPK4 (Homo sapiens, UniProt P31152); observed = cell-free assay; result = 100%
target = CDC42BPA (Homo sapiens, UniProt Q5VT25); observed = cell-free assay; result = 100%
target = Ribosomal protein S6 kinase alpha-5, C-terminal kinase domain (RPS6KA5, Homo sapiens, UniProt O75582); observed = cell-free assay; result = 67%
target = CDK7 (Homo sapiens, UniProt P50613); observed = cell-free assay; result = 72%
target = PIK3CA (Homo sapiens, UniProt P42336, H1047L); observed = cell-free assay; result = 73%
target = PTK2 (Homo sapiens, UniProt Q05397); observed = cell-free assay; result = 100%
target = TYRO3 (Homo sapiens, UniProt Q06418); observed = cell-free assay; result = 83%
target = STK24 (Homo sapiens, UniProt Q9Y6E0); observed = cell-free assay; result = 100%

Set 2
Compound: C=CC(=O)N1CCC[C@@H](n2nc(-c3ccc(Oc4ccccc4)cc3)c3c(N)ncnc32)C1
Action: inhibitor
Tested at: 1 µM
Measurement: inhibition
target = KIT (Homo sapiens, UniProt P10721, D816H); result = 29%
target = BMPR1A (Homo sapiens, UniProt P36894); observed = enzyme activity; result = 0%
target = EGFR (Homo sapiens, UniProt P00533, del746-750); result = 98%
target = MAPK4 (Homo sapiens, UniProt P31152); observed = enzyme activity; result = 3%
target = ACVRL1 (Homo sapiens, UniProt P37023); observed = enzyme activity; result = 1%
target = MYLK4 (Homo sapiens, UniProt Q86YV6); observed = enzyme activity; result = 1%
target = MAP3K13 (Homo sapiens, UniProt O43283); observed = enzyme activity; result = 22%
target = PIK3C2G (Homo sapiens, UniProt O75747); observed = enzyme activity; result = 21%
target = TYRO3 (Homo sapiens, UniProt Q06418); result = 76%
target = BRSK1 (Homo sapiens, UniProt Q8TDC3); observed = enzyme activity; result = 28%
target = STK35 (Homo sapiens, UniProt Q8TDR2); observed = enzyme activity; result = 46%
target = MAPK8 (Homo sapiens, UniProt P45983); observed = enzyme activity; result = 6%
target = TIE1 (Homo sapiens, UniProt P35590); observed = enzyme activity; result = 34%

Set 3
Target: Mitogen-activated protein kinase kinase kinase 10 (MAP3K10, Homo sapiens, UniProt Q02779)
Chain of UniProt Q02779 (whole entry, looked up): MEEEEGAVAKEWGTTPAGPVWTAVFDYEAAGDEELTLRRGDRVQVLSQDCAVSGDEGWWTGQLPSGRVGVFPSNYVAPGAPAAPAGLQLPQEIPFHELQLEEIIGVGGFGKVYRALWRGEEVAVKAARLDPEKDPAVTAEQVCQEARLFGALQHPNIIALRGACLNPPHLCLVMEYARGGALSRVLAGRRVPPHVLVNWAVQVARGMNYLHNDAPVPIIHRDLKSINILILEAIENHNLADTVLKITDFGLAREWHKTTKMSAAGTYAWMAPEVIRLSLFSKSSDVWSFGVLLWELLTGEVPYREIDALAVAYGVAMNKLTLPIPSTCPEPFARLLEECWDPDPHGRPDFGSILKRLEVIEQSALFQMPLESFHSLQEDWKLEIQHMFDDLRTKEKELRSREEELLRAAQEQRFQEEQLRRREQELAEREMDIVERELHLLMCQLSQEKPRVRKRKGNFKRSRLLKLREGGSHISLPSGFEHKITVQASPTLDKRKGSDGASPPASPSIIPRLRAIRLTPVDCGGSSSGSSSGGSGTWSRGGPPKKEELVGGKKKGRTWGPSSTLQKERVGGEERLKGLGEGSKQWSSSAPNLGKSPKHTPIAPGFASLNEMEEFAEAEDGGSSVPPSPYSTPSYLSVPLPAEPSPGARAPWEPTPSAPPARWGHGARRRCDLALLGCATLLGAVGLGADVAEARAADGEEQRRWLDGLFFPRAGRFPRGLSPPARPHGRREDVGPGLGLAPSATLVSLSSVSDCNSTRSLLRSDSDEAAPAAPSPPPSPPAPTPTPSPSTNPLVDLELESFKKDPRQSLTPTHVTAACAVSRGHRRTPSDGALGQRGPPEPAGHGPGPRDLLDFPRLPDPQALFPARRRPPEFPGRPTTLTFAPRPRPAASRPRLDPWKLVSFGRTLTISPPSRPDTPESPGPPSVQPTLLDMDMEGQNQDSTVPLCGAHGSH
Observed: enzyme activity
Action: inhibitor
Tested at: 0.5 µM
Baseline: control
Measurement: remaining activity
SMILES = Ic1cccc(CSc2nnc(-c3ccncc3)o2)c1; result = 102%
SMILES = CCOc1nc(NC(=O)Cc2cc(OC)ccc2OC)cc(N)c1C#N; result = 91.3%
SMILES = c1ccc(-c2cnc(Nc3ccc(OCCN4CCCC4)cc3)s2)cc1; result = 95.7%
SMILES = O=C(NC(NC(=S)Nc1ccc(F)c([N+](=O)[O-])c1)C(Cl)(Cl)Cl)C(c1ccccc1)c1ccccc1 (stereo not drawn); result = 98.9%
SMILES = COc1cc2ncnc(Nc3ccc(O)c(Br)c3)c2cc1OC; result = 98.2%
SMILES = COc1cc2c(cc1OC)-c1[nH]nc(Nc3cccc(F)c3)c1C2; result = 87.1%
SMILES = Nc1cccc(-c2cc3c(Oc4cccc(O)c4)ncnc3[nH]2)c1; result = 79.2%
SMILES = O=C(Nc1cccc(Nc2nccc(Nc3cccc(C(F)(F)F)c3)n2)c1)C1CC1; result = 96.4%
SMILES = Cc1cn(-c2cc(NC(=O)c3ccc(C)c(Nc4nccc(-c5cccnc5)n4)c3)cc(C(F)(F)F)c2)cn1; result = 110%
SMILES = c1ccc(-c2[nH]ncc2-c2ccnc3ccccc23)nc1; result = 104%
SMILES = Cc1nc2cc3nc(-c4cccs4)cnc3cc2n1C; result = 101%
SMILES = O=C1c2ccccc2-c2n[nH]c3cccc1c23; result = 86.7%
SMILES = N#Cc1c(NC(=O)c2cccc3ccccc23)sc2c1CCCC2; result = 85.4%
SMILES = CN([C@@H](Cc1ccc(OS(=O)(=O)c2cccc3cnccc23)cc1)C(=O)N1CCN(c2ccccc2)CC1)S(=O)(=O)c1cccc2cnccc12; result = 92.6%
SMILES = O=C1C(Cl)=C(N2C(=O)CCC2=O)C(=O)c2ccccc21; result = 92.8%
SMILES = CCN(CC)C(=O)c1ccc(Nc2nc(OCC3CCCCC3)c3[nH]cnc3n2)cc1; result = 15.2%
SMILES = Cc1cc2ncc(-c3ccccc3)nc2cc1C; result = 97.8%
SMILES = COc1cc2ncnc(Nc3cccc(Cl)c3)c2cc1OC; result = 101%
SMILES = O=c1cc(-c2cccc3c2Sc2ccccc2S3)oc(N2CCOCC2)c1; result = 95.9%
SMILES = Cn1nc2c3c(cccc31)C(=O)c1ccccc1-2; result = 91.4%
SMILES = N#C/C(=C\c1ccc(O)c(O)c1)C(=O)NCc1ccccc1; result = 100%
SMILES = CCN(CC)CCNC(=O)c1c(C)[nH]c(/C=C2\C(=O)Nc3ccc(Cl)cc32)c1C; result = 82.8%
SMILES = CN(C)C[C@H]1CCn2c(c(C3=C(c4cn(C)c5ccccc45)C(=O)NC3=O)c3ccccc32)C1; result = 102%

Set 4
SMILES: CN1CCN(C(=O)c2ccc(NC(=O)Nc3ccc(N(C)c4ccnc(Nc5ccc(CS(C)(=O)=O)cc5)n4)cc3)cc2)CC1
Tested at: 1 µM
Measurement: remaining binding
target = PNCK (Homo sapiens, UniProt Q6P2M8); technique = competitive binding; setting = CAMK1B; result = 85%
target = PLK1 (Homo sapiens, UniProt P53350); technique = competitive binding panel; baseline = vehicle; result = 100%
target = PIP4K2B (Homo sapiens, UniProt P78356); technique = competitive binding panel; item = PIP5K2B; baseline = vehicle; result = 17%
target = PRKX (Homo sapiens, UniProt P51817); technique = competitive binding panel; baseline = vehicle; result = 100%
target = CAMK1D (Homo sapiens, UniProt Q8IU85); technique = competitive binding panel; baseline = vehicle; result = 98%
target = PAK1 (Homo sapiens, UniProt Q13153); technique = competitive binding panel; baseline = vehicle; result = 92%
target = NEK9 (Homo sapiens, UniProt Q8TD19); technique = competitive binding panel; baseline = vehicle; result = 62%
target = FLT3 (Homo sapiens, UniProt P36888); technique = competitive binding scan; setting = autoinhibited form; result = 7.3%
target = CDK4 (Homo sapiens, UniProt P11802); technique = competitive binding panel; baseline = vehicle; result = 83%
target = PIP4K2C (Homo sapiens, UniProt Q8TBX8); technique = competitive binding panel; item = PIP5K2C; baseline = vehicle; result = 0.9%
target = WEE1 (Homo sapiens, UniProt P30291); technique = competitive binding panel; baseline = vehicle; result = 100%
target = GAK (Homo sapiens, UniProt O14976); technique = competitive binding panel; baseline = vehicle; result = 18%
target = EPHB3 (Homo sapiens, UniProt P54753); technique = competitive binding panel; baseline = vehicle; result = 100%

Excerpt of the above (set 4):
target = CAMK1D (Homo sapiens, UniProt Q8IU85); technique = competitive binding panel; baseline = vehicle; result = 98%
target = PAK1 (Homo sapiens, UniProt Q13153); technique = competitive binding panel; baseline = vehicle; result = 92%
target = NEK9 (Homo sapiens, UniProt Q8TD19); technique = competitive binding panel; baseline = vehicle; result = 62%
target = FLT3 (Homo sapiens, UniProt P36888); technique = competitive binding scan; setting = autoinhibited form; result = 7.3%
target = CDK4 (Homo sapiens, UniProt P11802); technique = competitive binding panel; baseline = vehicle; result = 83%
target = PIP4K2C (Homo sapiens, UniProt Q8TBX8); technique = competitive binding panel; item = PIP5K2C; baseline = vehicle; result = 0.9%
target = WEE1 (Homo sapiens, UniProt P30291); technique = competitive binding panel; baseline = vehicle; result = 100%
target = GAK (Homo sapiens, UniProt O14976); technique = competitive binding panel; baseline = vehicle; result = 18%
target = EPHB3 (Homo sapiens, UniProt P54753); technique = competitive binding panel; baseline = vehicle; result = 100%
